Published values from different studies.
Protocols differ between the studies behind these lines. ± marks the error that the study gave.

| Compound | test system | setting | Tmax [h] |
| --- | --- | --- | --- |
| Cc1ccccc1-c1cc(N2CC[N+](C)([O-])CC2)ncc1N(C)C(=O)C(C)(C)c1cc(C(F)(F)F)cc(C(F)(F)F)c1 | cancer patients, plasma | oral, dose not given, netupitant-palonosetron single dose, range of means | 3.88 to 4.45 |
| CC(C)(Sc1cc[n+]([O-])cc1-c1ccc(C#N)c2ccccc12)C(=O)OC1OC(C(=O)O)C(O)C(O)C1O (stereo not shown) | plasma | oral, 15 mg, moderate renal impairment, fasted | 3 |
| O=C(CCc1ccc(CNC(C(=O)OC2CCCC2)C2CCCCC2)cn1)NO (stereo not shown) | healthy volunteers | oral, single dose | ~0.5 |
| Cc1ccccc1-c1cc(N2CCNCC2)ncc1N(C)C(=O)C(C)(C)c1cc(C(F)(F)F)cc(C(F)(F)F)c1 | cancer patients, plasma | oral, dose not given, netupitant-palonosetron single dose, range of means | 12 to 16.9 |
| CC(=O)N[C@H](CC(=O)O)C(=O)N[C@H](Cc1c[nH]c2ccccc12)C(=O)N[C@H](Cc1ccccc1)C(=O)N[C@H](CCCCN)C(=O)N[C@H](C)C(=O)N[C@H](Cc1ccccc1)C(=O)N[C@H](Cc1ccc(O)cc1)C(=O)N[C@H](CC(=O)O)C(=O)N[C@H](CCCCN)C(=O)N[C@@H](C(=O)N[C@H](C)C(=O)N[C@H](CCC(=O)O)C(=O)N[C@H](CCCCN)C(=O)N[C@H](Cc1ccccc1)C(=O)N[C@H](CCCCN)C(=O)N[C@H](CCC(=O)O)C(=O)N[C@H](C)C(=O)N[C@H](Cc1ccccc1)C(N)=O)C(C)C | statin-treated high-risk CHD patients, plasma | oral, 100 mg daily, day 13, median, detected subjects | 2 |
| NC[C@@H](C(=O)Nc1ccc(-c2cn[nH]c2)cc1)c1ccccc1 | rabbit New Zealand White, plasma | topical ocular, one drop 0.1% | 2 |
| CC(C)(Sc1ccncc1-c1ccc(C#N)c2ccccc12)C(=O)OC1OC(C(=O)O)C(O)C(O)C1O (stereo not shown) | plasma | oral, 15 mg, mild renal impairment, fasted | 3 |
| COc1cc(C)c(Cc2ccc(O)cc2)cc1[C@@H]1S[C@H](CO)[C@@H](O)[C@H](O)[C@H]1O | Japanese T2DM patients, plasma | 2.5 mg luseogliflozin, day 7, once daily | 2.75 ± 1.13 |
| CN1CCN(c2cc(-c3ccccc3CO)c(N(C)C(=O)C(C)(C)c3cc(C(F)(F)F)cc(C(F)(F)F)c3)cn2)CC1 | cancer patients, plasma | oral, dose not given, netupitant-palonosetron single dose, range of means | 12.3 to 16 |
| CCCC[C@H](NC(=O)[C@H](CC(C)C)N(C)C(=O)CNC(=O)[C@@H](NC(=O)[C@H](Cc1ccccc1)NC(=O)[C@H](CCCCN)NC(=O)[C@@H](N)CC(=O)O)C(C)C)C(N)=O | Göttingen minipig, plasma | subcutaneous, 100 µg/kg | 0.167 |
